Results pooled from the literature.
Parts stem from different laboratories: compare values within a part only. “And” joins repeats or separate records; there may be more than shown.

Study 1
SMILES: CC(C)S(=O)(=O)c1ccc2nccc(Nc3ccc4sc(C5CCCC5)nc4c3)c2c1.Cl
Quantity: viability
L929; CCK-8; 0.781 µM: 100% and 101% and 102%
L929 RIPK3 knockout; 3.125 µM: 101% and 102% and 106%
L929 RIPK3 knockout; 3.125 µM, together with: zVAD: 104% and 103% and 101% and 106%
L929; CCK-8; 12.5 µM: 105% and 112% and 103% and 108% and 111%
L929; CCK-8; 0.781 µM, together with: zVAD: 96.1% and 96.7% and 98.5%
L929; CCK-8; 3.125 µM: 101% and 102% and 97.7% and 100%
L929 RIPK3 knockout; 1.563 µM, together with: zVAD: 102% and 105% and 101%
L929; CCK-8; 25 µM: 93.8% and 86% and 89.4% and 88.7%
L929 RIPK3 knockout; 12.5 µM, together with: zVAD: 103% and 100% and 105% and 102%
L929 RIPK3 knockout; 50 µM: 65.3% and 62.4% and 63.4%

Study 2
Target: Leukocyte tyrosine kinase receptor (LTK, Homo sapiens, UniProt P29376)
Chain of UniProt P29376 (whole entry, looked up): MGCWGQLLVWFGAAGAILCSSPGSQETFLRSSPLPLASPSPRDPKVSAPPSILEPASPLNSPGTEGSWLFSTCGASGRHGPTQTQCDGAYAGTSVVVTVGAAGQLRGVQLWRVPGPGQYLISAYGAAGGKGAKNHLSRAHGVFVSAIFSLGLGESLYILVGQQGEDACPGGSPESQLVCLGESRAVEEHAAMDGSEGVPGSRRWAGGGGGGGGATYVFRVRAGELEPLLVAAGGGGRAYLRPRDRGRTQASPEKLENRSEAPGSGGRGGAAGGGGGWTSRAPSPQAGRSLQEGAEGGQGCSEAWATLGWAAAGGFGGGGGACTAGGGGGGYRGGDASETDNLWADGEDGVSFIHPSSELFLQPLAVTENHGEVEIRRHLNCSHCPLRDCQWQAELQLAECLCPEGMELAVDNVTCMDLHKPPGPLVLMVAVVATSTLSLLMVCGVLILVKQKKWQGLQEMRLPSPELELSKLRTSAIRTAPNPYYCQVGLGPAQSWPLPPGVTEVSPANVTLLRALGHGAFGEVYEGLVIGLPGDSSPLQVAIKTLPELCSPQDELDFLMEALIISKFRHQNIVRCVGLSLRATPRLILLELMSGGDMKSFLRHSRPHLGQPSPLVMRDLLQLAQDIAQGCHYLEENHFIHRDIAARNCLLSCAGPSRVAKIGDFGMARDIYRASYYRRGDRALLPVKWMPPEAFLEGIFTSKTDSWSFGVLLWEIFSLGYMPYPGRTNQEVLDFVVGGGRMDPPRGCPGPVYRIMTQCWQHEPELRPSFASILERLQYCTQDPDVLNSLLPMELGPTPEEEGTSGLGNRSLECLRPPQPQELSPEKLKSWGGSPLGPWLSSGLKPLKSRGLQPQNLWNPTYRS
Observed: enzyme activity
Mode: inhibitor
Technique: radiometric
Tested at: 0.5 µM
Quantity: remaining activity
COc1cc2ncc(-c3ccccc3)nc2cc1OC: 97.9%
COc1ccc(-c2cnc3c(-c4ccsc4)cnn3c2)cc1: 98.9%
CC(C)[C@H](CO)Nc1nc(Nc2cccc(Cl)c2)c2ncn(C(C)C)c2n1: 100%
Cn1cnc2cc3c(Nc4cccc(Br)c4)ncnc3cc21: 77.9%
Nc1[nH]nc2nnc(-c3c(-c4ccccc4)nn4ccccc34)cc12: 90.5%
Cn1cc(/C=C2\C(=O)Nc3ccc(S(N)(=O)=O)cc32)c2ccccc21: 54.5%
O=C1NC(=O)/C(=C/c2ccc3nccnc3c2)S1: 94.7%
N/C(=N\[N+](=O)[O-])N/N=C\c1ccc(-c2cccc([N+](=O)[O-])c2)o1: 102%
COc1ccc2c(c[n+](C)c3c4cc5c(cc4ccc23)OCO5)c1OC: 95.9%
CO[C@H]1[C@@H](OC)C[C@H](C)[C@@H](OC)C2=CC(=O)C=C(NC(=O)/C(C)=C/C=C\[C@H](OC)[C@@H](OC(N)=O)/C(C)=C/[C@@H]1C)C2=O: 98.5%

Study 3
Cell line: mouse MPNST tumor cells
Technique: high-content immunofluorescence imaging
Item: nuclear SOX9
Tested at: 10 µM
Time: 12 h
Notes: mean of 2 replicates
Relative to: DMSO control
Reading: higher = more nuclear SOX9
Quantity: nuclear SOX9 intensity
COC(=O)CN1CN(c2ccccc2)C2(CCN(Cc3ccc4ccccc4c3)CC2)C1=O: 134 % of DMSO
c1ccc2c(c1)Nc1ccccc1S2: 117 % of DMSO
CCCCCn1cc(C(=O)NC23CC4CC(CC(C4)C2)C3)c(=O)c2cc(-c3ccccc3)ccc21: 97.1 % of DMSO
CN1[C@@H]2CC[C@H]1CC(OC(=O)N1Cc3ccccc3NC1=O)C2 (some centres unmarked): 99.5 % of DMSO
C=CCN1C[C@H](C)N([C@H](c2ccc(C(=O)N(CC)CC)cc2)c2cccc(OC)c2)C[C@H]1C: 132 % of DMSO

Study 4
Organism: Sarcocystis neurona
Observed: parasite activity
Tested at: concentration not given
Quantity: activity class
CC(NC(C)(C)C)C(=O)c1cccc(Cl)c1.Cl (centres unmarked): inactive
CCCCC/C=C\C/C=C\C/C=C\C/C=C\CCCC(=O)Nc1ccc(O)cc1: inactive
CC(C)CC(N(C)C)C1(c2ccc(Cl)cc2)CCC1.Cl (centres unmarked): inactive
Cl.O.Oc1ccc2c3c1O[C@H]1c4[nH]c5ccccc5c4C[C@@]4(O)[C@@H](C2)N(CC2CC2)CC[C@]314: inactive

Some of these lines once more (study 2):
CC(C)[C@H](CO)Nc1nc(Nc2cccc(Cl)c2)c2ncn(C(C)C)c2n1: 100%
Cn1cnc2cc3c(Nc4cccc(Br)c4)ncnc3cc21: 77.9%
Nc1[nH]nc2nnc(-c3c(-c4ccccc4)nn4ccccc34)cc12: 90.5%
Cn1cc(/C=C2\C(=O)Nc3ccc(S(N)(=O)=O)cc32)c2ccccc21: 54.5%
